Results pooled from the literature.
A part holds a random share of what one study measured.
Sequence of UniProt Q13557 (whole entry, looked up): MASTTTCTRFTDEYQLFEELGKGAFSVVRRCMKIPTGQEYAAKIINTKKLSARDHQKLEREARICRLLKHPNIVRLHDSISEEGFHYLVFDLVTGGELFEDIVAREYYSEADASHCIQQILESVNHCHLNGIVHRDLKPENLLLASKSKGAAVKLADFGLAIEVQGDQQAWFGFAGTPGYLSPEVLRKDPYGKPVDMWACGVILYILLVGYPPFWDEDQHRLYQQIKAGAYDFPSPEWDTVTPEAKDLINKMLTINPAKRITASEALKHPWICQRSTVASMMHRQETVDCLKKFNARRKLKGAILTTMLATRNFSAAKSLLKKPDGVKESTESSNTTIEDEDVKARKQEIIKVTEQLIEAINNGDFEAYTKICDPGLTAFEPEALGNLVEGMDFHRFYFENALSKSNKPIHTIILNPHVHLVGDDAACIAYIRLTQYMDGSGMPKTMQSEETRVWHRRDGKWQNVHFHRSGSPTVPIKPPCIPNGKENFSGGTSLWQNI
Sequence of UniProt P00519 (whole entry, unmodified, looked up): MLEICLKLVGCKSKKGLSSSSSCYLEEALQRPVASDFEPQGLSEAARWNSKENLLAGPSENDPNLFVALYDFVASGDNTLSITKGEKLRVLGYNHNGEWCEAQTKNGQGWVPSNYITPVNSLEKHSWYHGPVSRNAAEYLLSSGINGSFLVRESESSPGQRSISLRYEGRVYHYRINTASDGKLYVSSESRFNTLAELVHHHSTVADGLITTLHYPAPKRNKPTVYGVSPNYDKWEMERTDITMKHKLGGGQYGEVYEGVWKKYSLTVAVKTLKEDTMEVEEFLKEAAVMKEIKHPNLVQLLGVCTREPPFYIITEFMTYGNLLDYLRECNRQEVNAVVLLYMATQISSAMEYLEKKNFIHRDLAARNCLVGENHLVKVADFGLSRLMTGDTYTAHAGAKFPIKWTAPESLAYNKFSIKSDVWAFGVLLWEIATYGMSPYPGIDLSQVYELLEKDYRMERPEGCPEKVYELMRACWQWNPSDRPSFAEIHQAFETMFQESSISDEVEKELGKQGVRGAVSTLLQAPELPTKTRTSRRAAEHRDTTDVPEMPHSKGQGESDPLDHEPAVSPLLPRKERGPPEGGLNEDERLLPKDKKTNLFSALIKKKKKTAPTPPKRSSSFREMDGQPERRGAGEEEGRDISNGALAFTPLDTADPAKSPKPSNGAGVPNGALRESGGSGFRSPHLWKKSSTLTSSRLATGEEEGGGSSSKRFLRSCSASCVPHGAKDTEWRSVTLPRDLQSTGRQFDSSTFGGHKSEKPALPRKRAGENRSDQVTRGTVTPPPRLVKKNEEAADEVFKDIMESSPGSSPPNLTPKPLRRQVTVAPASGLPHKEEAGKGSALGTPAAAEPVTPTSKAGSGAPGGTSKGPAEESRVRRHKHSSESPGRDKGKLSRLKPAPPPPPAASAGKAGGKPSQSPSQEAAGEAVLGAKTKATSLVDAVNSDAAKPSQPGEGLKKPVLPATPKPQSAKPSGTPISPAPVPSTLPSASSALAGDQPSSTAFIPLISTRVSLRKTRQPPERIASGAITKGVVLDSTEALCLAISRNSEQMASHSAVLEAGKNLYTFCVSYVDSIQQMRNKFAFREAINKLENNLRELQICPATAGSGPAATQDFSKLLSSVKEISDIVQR
Sequence of UniProt P30291 (whole entry, looked up): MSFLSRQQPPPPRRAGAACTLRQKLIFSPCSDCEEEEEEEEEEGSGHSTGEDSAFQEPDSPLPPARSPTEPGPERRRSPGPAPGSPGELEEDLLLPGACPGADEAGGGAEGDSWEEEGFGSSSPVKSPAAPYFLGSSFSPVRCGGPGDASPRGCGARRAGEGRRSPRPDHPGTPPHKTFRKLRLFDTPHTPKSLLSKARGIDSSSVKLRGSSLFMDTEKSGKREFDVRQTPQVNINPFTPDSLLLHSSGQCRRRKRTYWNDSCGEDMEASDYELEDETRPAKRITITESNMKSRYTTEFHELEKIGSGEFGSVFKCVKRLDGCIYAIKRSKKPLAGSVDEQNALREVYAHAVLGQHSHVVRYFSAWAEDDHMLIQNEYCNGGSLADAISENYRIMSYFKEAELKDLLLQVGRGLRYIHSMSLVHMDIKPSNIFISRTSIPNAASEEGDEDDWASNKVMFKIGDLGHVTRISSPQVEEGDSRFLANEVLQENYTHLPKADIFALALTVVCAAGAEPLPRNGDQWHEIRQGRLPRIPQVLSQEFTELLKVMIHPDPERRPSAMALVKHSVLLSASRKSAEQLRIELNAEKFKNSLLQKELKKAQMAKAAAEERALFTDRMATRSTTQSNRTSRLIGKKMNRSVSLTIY
Sequence of UniProt Q8WU08 (whole entry, looked up): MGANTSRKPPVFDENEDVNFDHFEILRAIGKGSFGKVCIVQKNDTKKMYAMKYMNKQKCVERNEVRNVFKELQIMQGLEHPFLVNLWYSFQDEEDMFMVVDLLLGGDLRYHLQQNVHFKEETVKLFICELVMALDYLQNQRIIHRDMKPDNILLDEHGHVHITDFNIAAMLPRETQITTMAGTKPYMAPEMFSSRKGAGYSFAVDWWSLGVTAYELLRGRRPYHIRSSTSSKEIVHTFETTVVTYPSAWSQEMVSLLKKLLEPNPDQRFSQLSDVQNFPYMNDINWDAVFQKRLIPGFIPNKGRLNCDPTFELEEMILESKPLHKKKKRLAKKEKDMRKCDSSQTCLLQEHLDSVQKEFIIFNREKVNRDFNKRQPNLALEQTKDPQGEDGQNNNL
Sequence of UniProt P29322 (whole entry, looked up): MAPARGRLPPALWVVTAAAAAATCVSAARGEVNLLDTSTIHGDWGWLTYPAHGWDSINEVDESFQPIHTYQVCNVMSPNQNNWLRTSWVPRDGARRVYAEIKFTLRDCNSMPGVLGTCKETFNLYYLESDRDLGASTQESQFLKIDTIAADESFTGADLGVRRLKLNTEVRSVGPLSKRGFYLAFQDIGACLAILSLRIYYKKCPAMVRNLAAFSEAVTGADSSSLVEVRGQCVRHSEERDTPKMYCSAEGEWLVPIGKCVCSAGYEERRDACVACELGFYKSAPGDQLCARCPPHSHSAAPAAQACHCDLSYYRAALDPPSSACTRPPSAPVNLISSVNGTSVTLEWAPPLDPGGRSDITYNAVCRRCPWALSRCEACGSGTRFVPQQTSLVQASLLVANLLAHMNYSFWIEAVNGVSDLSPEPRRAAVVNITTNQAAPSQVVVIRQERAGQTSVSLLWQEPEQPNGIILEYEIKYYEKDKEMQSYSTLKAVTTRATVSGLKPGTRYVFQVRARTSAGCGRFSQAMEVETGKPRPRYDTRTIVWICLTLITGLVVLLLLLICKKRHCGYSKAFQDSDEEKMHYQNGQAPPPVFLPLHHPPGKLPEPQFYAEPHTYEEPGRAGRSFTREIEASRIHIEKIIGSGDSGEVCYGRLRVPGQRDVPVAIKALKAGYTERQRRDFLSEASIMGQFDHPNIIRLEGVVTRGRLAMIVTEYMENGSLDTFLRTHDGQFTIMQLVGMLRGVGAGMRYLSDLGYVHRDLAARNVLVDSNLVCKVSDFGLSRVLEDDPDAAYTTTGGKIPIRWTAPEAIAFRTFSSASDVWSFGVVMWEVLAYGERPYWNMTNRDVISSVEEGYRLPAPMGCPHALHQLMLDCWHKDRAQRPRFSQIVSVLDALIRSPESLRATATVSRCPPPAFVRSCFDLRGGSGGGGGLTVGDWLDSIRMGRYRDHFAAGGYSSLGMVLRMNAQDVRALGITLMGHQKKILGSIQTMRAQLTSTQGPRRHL
Sequence of UniProt P35916 (whole entry, looked up): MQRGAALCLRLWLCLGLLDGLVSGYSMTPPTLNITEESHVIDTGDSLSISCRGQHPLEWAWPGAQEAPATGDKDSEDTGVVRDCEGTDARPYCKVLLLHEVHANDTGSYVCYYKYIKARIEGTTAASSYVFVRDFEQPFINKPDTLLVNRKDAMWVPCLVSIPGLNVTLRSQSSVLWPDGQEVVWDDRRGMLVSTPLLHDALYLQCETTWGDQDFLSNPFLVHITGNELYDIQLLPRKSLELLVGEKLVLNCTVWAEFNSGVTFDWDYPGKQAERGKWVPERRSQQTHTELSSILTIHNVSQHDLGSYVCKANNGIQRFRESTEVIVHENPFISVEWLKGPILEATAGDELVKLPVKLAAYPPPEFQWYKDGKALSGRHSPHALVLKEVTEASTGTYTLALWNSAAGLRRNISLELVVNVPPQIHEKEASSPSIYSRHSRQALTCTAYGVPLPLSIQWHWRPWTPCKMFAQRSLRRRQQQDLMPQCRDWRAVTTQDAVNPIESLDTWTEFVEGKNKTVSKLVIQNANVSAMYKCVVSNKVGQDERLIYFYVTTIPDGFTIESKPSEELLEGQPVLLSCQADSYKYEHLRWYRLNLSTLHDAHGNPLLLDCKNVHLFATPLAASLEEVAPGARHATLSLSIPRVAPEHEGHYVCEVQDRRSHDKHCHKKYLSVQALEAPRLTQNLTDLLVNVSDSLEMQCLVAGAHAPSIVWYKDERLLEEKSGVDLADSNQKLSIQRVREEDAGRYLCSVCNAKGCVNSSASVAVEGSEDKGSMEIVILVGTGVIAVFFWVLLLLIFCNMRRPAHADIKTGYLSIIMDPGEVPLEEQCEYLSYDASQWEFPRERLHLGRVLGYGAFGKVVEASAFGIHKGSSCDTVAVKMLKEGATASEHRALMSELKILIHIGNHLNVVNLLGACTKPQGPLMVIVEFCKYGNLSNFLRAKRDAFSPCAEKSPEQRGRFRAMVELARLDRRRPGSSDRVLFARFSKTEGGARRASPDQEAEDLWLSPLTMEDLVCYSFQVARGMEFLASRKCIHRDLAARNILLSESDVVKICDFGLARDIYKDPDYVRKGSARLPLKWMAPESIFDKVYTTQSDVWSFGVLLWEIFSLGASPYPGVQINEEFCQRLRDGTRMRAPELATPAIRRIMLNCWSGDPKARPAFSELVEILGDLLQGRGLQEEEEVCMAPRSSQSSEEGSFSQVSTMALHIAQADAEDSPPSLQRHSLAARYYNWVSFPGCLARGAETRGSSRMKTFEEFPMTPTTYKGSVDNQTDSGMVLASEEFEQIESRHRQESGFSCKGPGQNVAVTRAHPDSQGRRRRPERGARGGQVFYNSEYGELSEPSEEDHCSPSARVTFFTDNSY

Set 1
Cell line: A-375
Tested at: 100 µM
Time: 36 h
Compound | viability [%]
CC(C)[C@H]1CC[C@H](C(=O)N[C@H](Cc2ccccc2)C(=O)O)CC1 | 102
Oc1cc(O)c(Cl)cn1 | 109
Nc1ccc(C(=O)O)c(O)c1 | 127
NCc1ccc(S(N)(=O)=O)cc1 | 135

Set 2
Cell line: mouse MPNST tumor cells
Technique: high-content nuclear imaging
Refers to: cell number
Tested at: 10 µM
Time: 12 h
Notes: mean of 2 replicates
Relative to: plate mean
Direction: higher = more cells
Structure (SMILES) | nuclei count
CC1(C)C(N)=Nc2cc(OCCCN3Cc4ccc(OCCc5cn(CC(=O)N6CCC(CCN7CCCC7)CC6)nn5)cc4C3)c(OCC3CC3)cc21 | 1.55 z-score
CCOc1ccc2c(c1)C(C)=CC(C)(C)N2 | -1.74 z-score
N#Cc1cc(NC(=O)C(=O)O)c(Cl)c(NC(=O)C(=O)O)c1 | 1.2 z-score
O=S(=O)(NC1CCC(c2cc(F)ccc2F)(S(=O)(=O)c2ccc(Cl)cc2)CC1)C(F)(F)F (stereo not drawn) | 1.2 z-score

Set 3
Target: Cyclin-dependent kinase 2, with cyclin A (CDK2, Homo sapiens, UniProt P24941)
Observed: enzyme activity
Action: inhibitor
Tested at: 0.5 µM
Relative to: control
SMILES | remaining activity [%]
COc1cc2ncnc(Nc3ccc(Oc4ccccc4)cc3)c2cc1OC | 100
Cc1ccc(NC(=O)c2ccc(CN3CCN(C)CC3)cc2)cc1Nc1nc(-c2cccnc2)cs1 | 94.7
COc1ccc(OC)c2c(=S)c3ccccc3[nH]c12 | 88.6
O=S(=O)(c1cccc2cnccc12)N1CCCNCC1 | 93.4
COc1cc2nccc(Oc3ccc(NC(=S)NC(=O)c4ccccc4C)cc3)c2cc1OC | 94.2
Cn1sc(=O)n(Cc2ccccc2)c1=O | 100
COc1cc2ncnc(Nc3ccc(F)c(Cl)c3)c2cc1OCCCN1CCOCC1 | 95.9
O=C(CCCc1ccc(-c2ccccc2F)cc1)Nc1ccc(O)cc1 | 92.7
C#Cc1cccc(Nc2ncnc3cc(OCCOC)c(OCCOC)cc23)c1 | 95.9
O=C(O)c1ccc2c3c1cccc3c(=O)n1c3ccccc3nc21 | 82.7
CO[C@H]1C[C@@H]2CC[C@@H](C)[C@@](O)(O2)C(=O)C(=O)N2CCCC[C@H]2C(=O)O[C@H]([C@H](C)C[C@@H]2CC[C@@H](O)[C@H](OC)C2)CC(=O)[C@H](C)/C=C(\C)[C@@H](O)[C@@H](OC)C(=O)[C@H](C)C[C@H](C)/C=C/C=C/C=C/1C | 101
O=C1NC(=O)C(c2cn(CCCO)c3ncccc23)=C1c1cnccn1 | 94.8
Nc1ccc2ncnc(NCCc3ccc(Oc4ccccc4)cc3)c2c1 | 95.8
NCCNc1ncc(C(N)=O)c(Nc2cccc(C(F)(F)F)c2)n1 | 97.6
CNC(=O)c1cc(Oc2ccc(NC(=O)Nc3ccc(Cl)c(C(F)(F)F)c3)cc2)ccn1 | 99.7

Set 4
Structure (SMILES): CS(=O)(=O)N1CCCC(NC(=O)[C@H](CCC2CCCCC2)NC(=O)c2ccc(CNc3ncnc4c3nnn4-c3ccccc3)cc2)C1 (stereo partly drawn)
Tested at: 0.1 µM
target | observed | technique | remaining binding [%]
STK32A (Homo sapiens, UniProt Q8WU08) | cell-free assay | competition with immobilised ligand | 57
Tyrosine-protein kinase ABL1, phosphorylated (ABL1, Homo sapiens, UniProt P00519, E255K) | binding | competition with immobilised ligand | 87
MAP4K1 (Homo sapiens, UniProt Q92918) | cell-free assay | competition with immobilised ligand | 100
MAP2K3 (Homo sapiens, UniProt P46734) | cell-free assay | competition with immobilised ligand | 85
DMPK (Homo sapiens, UniProt Q09013) | cell-free assay | competition with immobilised ligand | 100
FER (Homo sapiens, UniProt P16591) | cell-free assay | competition with immobilised ligand | 86
CAMK2D (Homo sapiens, UniProt Q13557) | cell-free assay | competition with immobilised ligand | 93
MAPK1 (Homo sapiens, UniProt P28482) | cell-free assay | competition with immobilised ligand | 90
MAPK6 (Homo sapiens, UniProt Q16659) | cell-free assay | competition with immobilised ligand | 94
FLT4 (Homo sapiens, UniProt P35916) | cell-free assay | competition with immobilised ligand | 81
SIK1 (Homo sapiens, UniProt P57059) | – | competition binding | 100
EPHA8 (Homo sapiens, UniProt P29322) | cell-free assay | competition with immobilised ligand | 100
BRAF (Homo sapiens, UniProt P15056, V600E) | cell-free assay | competition with immobilised ligand | 100
STK38 (Homo sapiens, UniProt Q15208) | cell-free assay | competition with immobilised ligand | 83
SGK2 (Homo sapiens, UniProt Q9HBY8) | cell-free assay | competition with immobilised ligand | 100
MKNK1 (Homo sapiens, UniProt Q9BUB5) | cell-free assay | competition with immobilised ligand | 86
MAP4K2 (Homo sapiens, UniProt Q12851) | cell-free assay | competition with immobilised ligand | 100
STK24 (Homo sapiens, UniProt Q9Y6E0) | cell-free assay | competition with immobilised ligand | 100
WEE1 (Homo sapiens, UniProt P30291) | cell-free assay | competition with immobilised ligand | 72
DYRK1B (Homo sapiens, UniProt Q9Y463) | cell-free assay | competition with immobilised ligand | 100
Tyrosine-protein kinase ABL1, non-phosphorylated (ABL1, Homo sapiens, UniProt P00519, F317L) | cell-free assay | competition with immobilised ligand | 100

Single results of other studies
Structure (SMILES) | target | observed | action | quantity | result
Cc1cc(-c2ccc(/N=N/c3ccc4c(S(=O)(=O)O)cc(S(=O)(=O)O)c(N)c4c3O)c(C)c2)ccc1/N=N/c1ccc2c(S(=O)(=O)O)cc(S(=O)(=O)O)c(N)c2c1O | Calcium/calmodulin-dependent protein kinase type II subunit delta (CAMK2D, Homo sapiens, UniProt Q13557) | enzyme activity | inhibitor | IC50 | 941 nM
